# Measurements collected from several papers.
# Protocols differ between the studies behind these lines. Values joined by “and” are separate records of one study, mostly repeats; a detail may differ. ± gives the spread as reported.
SMILES,assay,system,setting,scale,quantity,value
Cc1oncc1C(=O)Nc1ccc(C(F)(F)F)cc1,item: dihydroorotate,"CD-1 mouse, female, whole blood","oral, 30 mg/kg, 240 h on day 10",baseline: vehicle,blood concentration increase,13 fold
O=C1Nc2cc3[nH]nc(-c4ccncc4)c3cc2CN1Cc1ccccc1,RECIST v1.1,"human, relapsed or refractory advanced solid tumours","intravenous, 4.8 mg/kg, pooled schedules",,"progressive disease, best response",100%
O=C(OC(C(F)(F)F)C(F)(F)F)N1CCN(Cc2cccc(Oc3ccccc3)c2)CC1,PET,"rhesus monkey, hippocampus","intravenous, 0.3 mg/kg, pretreatment blocking, together with: [18F]T-401",,tracer distribution volume,1.17 mL/cm3
Cn1cc(Nc2nccc(-c3ccc4c(c3)CN(C3COC3)CC[C@H]4NC(=O)c3cn(C(C)(C)C)nn3)n2)cn1,item: LXR/RXR Activation,"splenic B cells, mouse","in vivo, 30 mg/kg, IgD-activated B cells","baseline: vehicle, positive = activation",pathway activation z-score,-0.707
C[C@H]1C[C@H]2CSC(N)=N[C@@]2(c2nc(NC(=O)c3ccc(OC(F)F)cn3)cs2)CO1,item: Aβx-40,"healthy adults, plasma","275 mg once daily, day 7",baseline: placebo,percent change from baseline,-72.2%
COc1ccc2c(c1)CN(C(=O)CCN1CCC(Cc3ccccc3)CC1)CC[S@@+]2[O-],,anaesthetised Beagle dogs,"intravenous, 0.1 mg/kg, pacing cycle length 360 ms",,atrial ERP prolongation,30.4%
C[C@@H](O)CCOC(=O)C[C@@H](C)O,item: C5-DC acylcarnitine,"human, plasma","60 min, log2-transformed values",,metabolite level,-4.11 ± 0.78 µmol/L
COc1ccccc1[C@H](Cn1c(=O)n(C(C)(C)C(=O)O)c(=O)c2c(C)c(-c3ncco3)sc21)OC1CCOCC1,"[1-13C]acetate infusion, isotopomer analysis","overweight or obese healthy men, plasma VLDL-TG palmitate","oral, 50 mg single dose, 3 h post-dose, together with: oral fructose",,fractional hepatic DNL,5.32 % new palmitate
Cn1cc([C@H]2C[C@H]3CSC(N)=N[C@@]3(c3ccc(F)cc3F)CO2)cn1,item: Aβx-40,"Mus musculus wild-type, cerebrospinal fluid","subcutaneous, 10 mg/kg, 18 h",,Aβ40 level,2 ng/mL
COc1ccc(F)cc1C(=O)NCc1ccc(-c2nn([C@@H](C)C(F)(F)F)c(N)c2C(N)=O)cc1,,CLL/SLL patients,"dose not given, prior BTKi stopped for toxicity/other",,overall response rate,52%
C=CCn1c(=O)c2cnc(Nc3ccc(N4CCN(C)CC4)cc3)nc2n1-c1ccc2c(n1)[C@@](O)(CC)CC2,,"BALB/c nude mouse, LoVo xenograft","oral, 80 mg/kg once daily, 5 d on 2 d off ×3, day 24",baseline: vehicle,tumour volume difference,332 ± 26.8 mm3
c1ccc(-c2n[nH]cc2-c2ccnc3ccccc23)nc1,"kinase binding, competitor, MIB/MS competition, item: GIN4",Candida albicans cell lysate,100 nM,baseline: DMSO,log2 fold change,1.34
COc1cc(Nc2ncc3c(n2)-c2ccc(Cl)cc2C(c2c(F)cccc2OC)=NC3)ccc1C(=O)O,,"mouse, NB-EBc1 neuroblastoma xenograft",5.2 mg/kg,direction not given,median response score,2
C[C@H](Oc1ccc(Br)cc1-c1ccon1)C(=O)O,"maximum voluntary grip contraction, handgrip dynamometry",healthy human,"800 mg, SAD",,difference from placebo,-0.483 kg
Cc1n[nH]c2ccc(-c3cc(OC[C@@H](N)Cc4ccccc4)cnc3-c3ccoc3)cc12,"kinase binding, competitor, MIB/MS competition, item: IKS1",Candida albicans cell lysate,100 nM,baseline: DMSO,log2 fold change,-0.323
COc1cc(F)c([C@@H]2CNC(=O)[C@H]2NC(=O)Nc2ccccc2)c(F)c1,LV haemodynamics,"rat, myocardial ischaemia-reperfusion","1 mg/kg, 1008 h, 6 weeks post-injury",,LV dP/dtmin,-6390 ± 1130 mmHg/s
CCCCOc1nc(N)c2c(n1)N(Cc1cccc(CN3CCCC3)c1)CC(=O)N2,qPCR,"human, blood","dose not given, 96 h, compound alone",baseline: predose,ISG15 mRNA level,increased
CC[C@H](C)[C@H](NC(=O)[C@H](Cc1ccccc1)NC(=O)[C@H](CCC(=O)O)NC(=O)[C@H](CCCCN)NC(=O)[C@H](C)NC(=O)[C@H](C)NC(=O)[C@H](CCC(N)=O)NC(=O)CNC(=O)[C@H](CCC(=O)O)NC(=O)[C@H](CC(C)C)NC(=O)[C@H](Cc1ccc(O)cc1)NC(=O)[C@H](CO)NC(=O)[C@H](CO)NC(=O)[C@@H](NC(=O)[C@H](CC(=O)O)NC(=O)[C@H](CO)NC(=O)[C@@H](NC(=O)[C@H](Cc1ccccc1)NC(=O)[C@@H](NC(=O)CNC(=O)[C@H](CCC(=O)O)NC(=O)C(C)(C)NC(=O)[C@@H](N)Cc1cnc[nH]1)[C@@H](C)O)[C@@H](C)O)C(C)C)C(=O)N[C@@H](C)C(=O)N[C@@H](Cc1c[nH]c2ccccc12)C(=O)N[C@@H](CC(C)C)C(=O)N[C@H](C(=O)N[C@@H](CCCNC(=N)N)C(=O)NCC(=O)N[C@@H](CCCNC(=N)N)C(=O)NCC(=O)NCC(=O)NCC(=O)NCC(=O)N[C@@H](CO)C(=O)NCC(=O)NCC(=O)NCC(=O)NCC(=O)N[C@@H](CO)C(=O)NCC(=O)NCC(=O)NCC(=O)NCC(=O)N[C@@H](CO)C(=O)NCC(=O)N[C@@H](CSC1CC(=O)N(CCC(=O)NCC(=O)NCCOCCOCCOCCOCCC(=O)N[C@@H](CCCCNC(=O)CC[C@H](NC(=O)CCCCCCCCCCCCCCCCCCC(=O)O)C(=O)O)C(=O)NCCOCCOCCOCCOCCC(=O)N[C@@H](CCCCNC(=O)CC[C@H](NC(=O)CCCCCCCCCCCCCCCCCCC(=O)O)C(=O)O)C(=O)O)C1=O)C(=O)O)C(C)C (some centres unmarked),,db/db mouse,"subcutaneous, 100 nmol/kg single, 0 to 96 h",baseline: baseline,blood glucose AUC(0-96),7270 ± 1010%
C[C@@H](NC(=O)N1C(=O)[C@H](Cc2ccnc(N)c2)[C@H]1C(=O)O)C1CCCCC1,,human,"iv infusion, 0.3 mg/kg/h, 24 h",,PT AUEC,1840 h·s
CC(C)NCC(O)c1ccc(O)c(O)c1 (centres unmarked),,"ventricular cardiomyocytes, C57BL/6 mouse","dose not given, 0.604 s",,sarcomere length,1.68 µm
Cc1ccc(C(=O)OCc2ccc([C@@H](CN)C(=O)Nc3ccc4cnccc4c3)cc2)c(C)c1,tonometry,"NZW rabbit, magnetic bead-induced ocular hypertension","ocular, 0.02%, 2 h",,IOP,34.2 mmHg
CC1(C)CCC(c2ccc(Cl)cc2)=C(CN2CCN(c3ccc(C(=O)NS(=O)(=O)c4ccc(N[C@H](CCN5CCOCC5)CSc5ccccc5)c(S(=O)(=O)C(F)(F)F)c4)cc3)CC2)C1,"cell killing, flow cytometry PI exclusion","canine blood CD21+ B cells, dog 34",24 h,,EC50,980 nM
N#Cc1ccc(Oc2ccc3c(c2)COB3O)cc1,,"Balb/c mice, oxazolone atopic dermatitis","day 8, unit not given",baseline: vehicle,ear thickness difference,-0.119
CN(C(=O)n1cnc(-c2ccc[n+]([O-])c2)c1)C1CCCCC1,item: LEA,"human, plasma",20 mg single dose,,AUC(0-t),342 ng·h/mL
C[C@H]1O[C@@H](O[C@H]2CC[C@@]3(C)[C@@H](CC[C@]4(C)[C@@H]3C=C[C@]35OC[C@@]6(CCC(C)(C)C[C@H]63)[C@@H](O)C[C@]54C)[C@]2(C)CO)[C@H](O)[C@@H](O[C@@H]2O[C@H](CO)[C@@H](O)[C@H](O)[C@H]2O)[C@H]1O,,"Mus musculus, chronic-plus-binge ethanol-fed, liver","oral, 10 mg/kg/day, 168 h, dosed for 7 days",,hepatic total cholesterol,0.144 mmol/g protein and 0.117 mmol/g protein and 0.127 mmol/g protein and 0.125 mmol/g protein and 0.168 mmol/g protein and 0.129 mmol/g protein
OC(CCN1CCCCC1)(c1ccccc1)C1CC2C=CC1C2 (centres unmarked),resting-state EEG,healthy elderly humans,"oral, 4 mg, eyes open, LS mean",,EEG Beta1-power Fz-Cz,2.8 µV²
O=C(O)CNC(=O)Cc1ccccc1,,"ventricular cardiomyocytes, C57BL/6 mouse","dose not given, 0.392 s",,sarcomere length,1.72 µm
N#Cc1ccn2c(-c3ccncc3)c(-c3ccc(F)cc3)nc2c1,"kinase binding, competitor, MIB/MS competition, item: ENV7",Candida albicans cell lysate,1 µM,baseline: DMSO,log2 fold change,-0.0233
CN[C@@H]1COc2c(S(=O)(=O)NC(=O)Nc3c4c(cc5c3CCC5)CCC4)cnn2C1,item: IL-18,"human participants, whole blood ex vivo","900 mg single dose, 336 h, IL-18, circulating, adjusted for, together with: LPS/ATP",baseline: baseline,inhibition,19.4%
COc1ccc(-c2cncc(N[C@@H](C)c3cccc(NC(=O)c4cncc(C)c4)c3)n2)cc1OC,item: rno-miR-329-3p,"rat SU5416/hypoxia model, lung",dose not given,baseline: SU5416/hypoxia vehicle,fold change,1.08
COc1cc2c(cc1OC)C(=O)C(CC1CCN(Cc3ccccc3)CC1)C2 (centres unmarked),Morris water maze,"C57BL/6J mice, vascular dementia",10.0 and 1.0 mg/kg,,escape latency,decreased
NC(=O)c1cnc2[nH]ccc2c1N[C@@H]1[C@@H]2CC3C[C@H]1C[C@@](O)(C3)C2,"CD8+ effector memory T cells, flow cytometry","Caucasian humans, peripheral blood",20 mg single dose,baseline: baseline,percent change,0.18%
CC(C)C[C@@H](C=O)NC(=O)[C@H](CC(C)C)NC(=O)[C@H](CC(C)C)NC(=O)OCc1ccccc1,item: Ub(G76V)-GFP,,0.625 µM,,degradation rate constant,0.0089 min⁻¹
N#Cc1ccc2c(-c3ccncc3)c(-c3ccc(F)cc3)nn2c1,"kinase binding, competitor, MIB/MS competition, item: CKA2",Candida albicans cell lysate,10 µM,baseline: DMSO,log2 fold change,0.302
CC(c1cc2ccccc2s1)N(O)C(N)=O (centres unmarked),item: RvD5,human whole blood,"3 µM, together with: Escherichia coli",,amount,2 pg/mL blood
CSCCNc1nc(SCCC(F)(F)F)nc2c1ncn2[C@@H]1O[C@H](COP(=O)(O)OP(=O)(O)C(Cl)(Cl)P(=O)(O)O)[C@@H](O)[C@H]1O,light transmittance aggregometry,"human patients, platelet-rich plasma","dose not given, 1 h, together with: ADP 20 µM",baseline: patients,patients with IPA above 80%,2.5%
O=C(/C=C/c1ccc(O)c(O)c1/C=C/c1ccc(O)c(O)c1)O[C@H](Cc1ccc(O)c(O)c1)C(=O)O,,isolated myocardium,1 µM,,maximal dP/dt,1180 mmHg/s
C[C@@H]1C[C@H]2[C@@H]3CCC4=CC(=O)C=C[C@]4(C)[C@@]3(F)[C@@H](O)C[C@]2(C)[C@@]1(O)C(=O)CO,,"BALB/c mice, oxazolone atopic dermatitis","topical, 20 mg/ear, 336 h, day 14, unit not given",baseline: vehicle,ear thickness difference,-0.374
CCCN1CCCC[C@H]1C(=O)Nc1c(C)cccc1C,,"Sprague-Dawley rat, male","intrathecal, 30 µL, 15 mM",,sensory block,100 % MPE
N#Cc1ccc2c(c1)[C@H]1CCCN(C(=O)c3ccc4[nH]cnc4c3)[C@H]1C2,item: androstenedione,"human female, Phase II trial","oral, 20 mg once daily, HPA axis, mean",,change from baseline,0.45 nmol/L
Cc1cn(-c2ccc3n(c2=O)CCN([C@@H](C)[C@@H]2CC[C@H](c4cc(F)c(Cl)cc4C(F)(F)F)O2)C3=O)cn1,,"human, CSF","300 mg, at Tmax, single dose",baseline: baseline,placebo-adjusted total Abeta change,7.11%
CCCCC1(CCCC)CN(c2ccccc2)c2cc(SC)c(OCC(=O)N[C@@H](C(=O)NCC(=O)O)c3ccccc3)cc2S(=O)(=O)C1,item: 7α-hydroxy-4-cholesten-3-one,"human, plasma","2.5 mg once daily, day 5",,plasma C4,32.1 ng/mL
CCOc1cc([C@@H](CS(C)(=O)=O)N2C(=O)c3cccc(NC(C)=O)c3C2=O)ccc1OC,,"Balb/c mice, oxazolone atopic dermatitis","day 8, unit not given",baseline: vehicle,ear thickness difference,-0.0958
CC(C)[C@H](C(=O)Nc1ccc(C(=O)NO)cc1)c1ccccc1,volumetric MRI,"human, left foramen magnum tumour","dose not given, day 224",baseline: baseline,tumour volume change,-19.4%
